Experimental data of several laboratories.
A part holds a random share of what one study measured. Positions count from the first letter of the parent shown.

Sample 1 — technique: RNA Bind-n-Seq; molecule type: RNA; medium: in vitro; tested at: 365 nM; reference: no-protein control; direction: higher = stronger binding; measurement: RBNS enrichment (R)
Target: RNA binding protein fox-1 homolog 2, RRM domain, GST-SBP tag (RBFOX2, Homo sapiens, UniProt O43251-10, residues 100-194)
Notes: natural RNA segment, single round, ends assumed
Shared flanks, not repeated: GGGAGUUCUACAGUCCGACGAUC … UGGAAUUCUCGGGUGCCAA
Construct (chain): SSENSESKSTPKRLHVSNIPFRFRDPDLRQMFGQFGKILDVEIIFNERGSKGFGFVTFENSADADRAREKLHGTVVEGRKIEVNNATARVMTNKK
UCUCUAUGUACAUAUCUAUCUACUUCUGACUGUAGAUGGGUAUAUAGAUAGAUGCCAAGCUUCUUAUGUUCUGGGGGUAGUAUGCAUCAUUAUUGGGUCUCUGCCUUAAA: 0.4
AACCAAAAGCUUCUGCACUUUGCUUCUGUUCUUCCUGUACAAGAAAUGCAAACGGCCACUGCAUUUUAAUGAUUGUUAUUCUUUUAUGAAUAAAAUGUAUGUAGAAACAA: 0.625
UGGUUGUGUUAACAGAGCACAUUUUGUUGGGUGAGUCCUAUGUGAUUUUUUUCAUGUUUGUUUUAUCUGGGGGUUGUUCAUGAAACUGACAGAUGUUUUUCUAAAAAGGA: 0.768
CCGCCCCAGCGCUUCACAGCCGCUUCUGGCUUUGCAAGGUGUCUGUCUCGGCCAGUGCCGUGGCCUGCUGGGAAGGGUCAGAGUCCUCACUGUCCCCCGUCUGUCCAGCA: 1.46
CUCCCCAGCUUGCGCAGAGACGUGUGCGUCCCACGUCCCUUGCCGUGCUCUCCCUUUUGGUAGGUGUUACUUUAAGAACUGCAGUCAGACUUGCUGUUGCCUGACAAUUA: 0.506
UGGCCGCGGGACUGAUGGGUGUCCUGGGUUCUUUAGCUCACCAGCACUUUGCGCUCAAUGGACUUUGUAAAUUCUCAUCAGCUGUUGUAGAAGUUCCUCUGCCUGGAGCU: 3.52
AAGCCACUGUUCCCUCUGGUGGCUUUUACAUGUCGGUGGCUGGCAUACCAUAUAGUAACAGCAGUAAUUCUGUCUCAGUGUGCUUGCAAGGAAACUUUUCUUAUAAAGAG: 0.263
AUUGUAUAUAUGGCAGGCUUCCCUGGUGCCGAUGUAAAGGGCUACAUUUGGGAACAUUUGACUUCCUUGGGACUCUUAAGUGCAUAAUGAUGGCAUGAAGUAAAAGGGGC: 8.96
AAAUCAGGAACUUUUUUCUAACAAUUUGCUUUUGAAACUUGAAGUCAAGGAAACAGUGUGGUGCAAGUACUGCUGUUCUAGCCCCCAAAGAGUUUUCUGUACAAAAUUUU: 0.545
UCUUAUUGCUUAUUUGGUCGUAAUGAAAAUAAUUUGUAAAAUGUCCUUUAAAAGUUUAAUGAUACUUCUGAUGUUUCGGAACAGUCAUUUCACCUACUAUUUCUGAAUAU: 0.378
UCAACAGGGAAUAAACAGGCUCUAGCACAUUAAGGAUGUGGCCUAGGCUGAGUGUUACCUUAAAAUGCCUUGUGGUCUCCACCUCUAAAGCUAUAAAAGUGUCUUAGAGA: 0.245
AACUGCCCAGGUGGAACAGCACGUAACCUAGUGAGUGACUGUACUCCUUUCUAGGAAUGCUGAUUCAGAGUGCACCUCUUUGACUAGGUCCCAGGAUCCCCUUGUCCCUG: 1.36

Sample 2 — technique: DHFR PCA, deep sequencing; medium: yeast; with: (+)-ABA 0.0091 µM; reference: wild-type fitted maximum; direction: higher = stronger binding; measurement: relative binding score
Target: ABI1, truncated, D143A, DHFR fusion (Arabidopsis thaliana)
Notes: methotrexate growth selection, single substitutions
Starting sequence: PYL1, truncated, DHFR fusion (Arabidopsis thaliana); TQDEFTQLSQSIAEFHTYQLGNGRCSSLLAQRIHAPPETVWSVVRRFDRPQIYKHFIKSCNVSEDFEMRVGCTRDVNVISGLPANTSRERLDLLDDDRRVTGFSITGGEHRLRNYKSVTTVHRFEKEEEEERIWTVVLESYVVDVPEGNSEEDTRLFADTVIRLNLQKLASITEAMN; partner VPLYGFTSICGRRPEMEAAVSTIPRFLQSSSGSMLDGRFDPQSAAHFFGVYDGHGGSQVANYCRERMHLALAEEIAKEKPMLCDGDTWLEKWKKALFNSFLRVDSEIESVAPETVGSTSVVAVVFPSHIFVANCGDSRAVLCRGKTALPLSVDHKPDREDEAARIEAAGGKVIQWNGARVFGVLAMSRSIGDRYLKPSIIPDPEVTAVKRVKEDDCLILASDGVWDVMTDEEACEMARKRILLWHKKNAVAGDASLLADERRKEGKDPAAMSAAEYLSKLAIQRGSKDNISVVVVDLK
I12D: 0.393%
L169F: -0.108%
K168Y: 5.71%
L29H: 23.7%
W134Y: 77.5%
D144H: 0.57%
H34D: 39.9%
S9V: 20.2%
D159L: -4.41%
S9E: 38%
N177E: 31%
A30K: 14.4%
E125W: 2.45%
V143N: -1.8%

Sample 3 — technique: RNA Bind-n-Seq; molecule type: RNA; medium: in vitro; tested at: 100 nM; reference: input RNA pool; direction: higher = stronger binding; measurement: bound/input enrichment
Target: RING finger protein unkempt homolog, zinc fingers 1-6, SBP tag (UNK, Homo sapiens, UniProt Q9C0B0, residues 30-357)
Chain of UniProt Q9C0B0 (30-357, looked up): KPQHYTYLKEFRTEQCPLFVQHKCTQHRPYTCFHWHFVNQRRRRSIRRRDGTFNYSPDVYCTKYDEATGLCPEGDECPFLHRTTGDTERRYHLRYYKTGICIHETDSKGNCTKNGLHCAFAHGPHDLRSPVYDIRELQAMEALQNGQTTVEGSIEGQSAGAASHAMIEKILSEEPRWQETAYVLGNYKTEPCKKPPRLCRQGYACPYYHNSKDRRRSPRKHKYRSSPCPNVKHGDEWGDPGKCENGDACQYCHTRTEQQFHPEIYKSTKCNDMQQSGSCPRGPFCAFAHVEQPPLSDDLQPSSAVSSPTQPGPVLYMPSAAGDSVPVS
Notes: RNA with constant flanks, vertebrate orthologous sites, ends assumed
Shared flanks, not repeated: GGGAGUUCUACAGUCCGACGAUC … CAACAGAGGAUUGAGCAUCA
UUGGGACCAGUUCUCCAAAUAGGAAUAGUAGUAAAAAAAAUAAACAAAAUGAUAUUUAUAUAGAAAAAACAGAAGUUAAAUCAUGUAGGGUAAAUGCUGCUAAUGUUCCAAGCCCUAAAG: 1.55 ratio
UGUCUGCCUCAUUCUAAGAUUUACACAGUAGACCAUUUGUCAUCCAUGCUGUCCCACAAAUAGUUUUUUGUUUACGAUUUAUGACAGGUUUAUGUUACUUCUAUUUGAAUUUCUAUAUUU: 1.2 ratio
GGGACGCUUUGAUGUAAAAAUUGAAGUUAAGAGCUGAUCACAAGCACACAUCUUUCCCACUAGCCAUUUAAAAAAGUUAAAAAAGAUACAAAAACCUACUAGUCUUGAACAAACUGUCAU: 1.72 ratio
AAUGGCUUUUGCUUCAUGAAGAAGAGUAAAAAAUAGUCCCCUCAAUUUAAAAUGCCUAAUAGCUAUUUUAAAAAUUAAAAUGUUUAAAUGUGUAAAUCACAUCACCUGAUGUGAUUUACA: 0.829 ratio
UUCGCUGAGUGGCAGCCUGCCAUCAGUGGCCGACUCCCACUCCAGCCACUUCUCUGAGUUCAGCUGCUCCGACCUGGAGAGCAUGAAGACCUCGUGUAGCCACGGCUCCAGCGGUGGCGA: 0.211 ratio
GACCCCCACUCCCUGUGAGAGGGAAUGGGGGAAGCCUGAUGACCCUCAGCUGUUCCAAUCUAGUAUUUUUUUUCUUUUUUAAAAUUACUGUAUUUAUUAUGACGAUGGUGACUCCCCAGU: 1.58 ratio
GACCUCCUAAACUUCUAGCUUUCCAGCGGUAGCUGUUUUAGAUACUGAUUUUCUUUUCUUUGGAGUUUUUUCCUGUUCCCUGCCUUCUCUUCCCCUGUUCCCACAGUUUGACUUCUGGAU: 1.63 ratio
CAUUUCGUUGCACAUGAUGGUGUCUAUUGAGGAGCCUUGAAGGAAGGAAGAGGGGUGCUGUAGCAGUGGUCCCUGGGUACCUGGCCUCCCGUGUCCCACACCCCUCCCCGUCCCUCUCUG: 0.424 ratio
AUAAUCACUCUAAUUGUAAUCUGAAUACAGUGUAACAUUGUGUAGCCUUUUUGUAUAAAAUAGACAAAUAGAAAUGGUCCAAUUAGUUUCCUUUUUAAUAUGCUUAAAAUAAGCAGGUGG: 2.49 ratio
AGUUUUGGAUGCAGUGUAUAAAUUAUCCAAGGCAGUGACUUCAGCGUUAGAGAUAUUGUUAGCUUUAAAGUCGUCUACGUUUCUUUAAACGUCUUCAUUGGGUUGUUUGCUGCUGUUCUU: 0.492 ratio
GGUUGAUGUUCUGAAGAACCACUUGGUGAAAGAAGGUCGAGUAGAUGAAGAAAUUGCGCUUAGAAUUAUCAAUGAGGGUGCUGCCAUCCUUCGGAGAGAGAAAACCAUGAUAGAAGUAGA: 0.546 ratio

Sample 4 — technique: protein-binding microarray; molecule type: double-stranded DNA, one strand shown; medium: in vitro; tested at: 2200 nM top; notes: 60-bp whole probe; with: salmon DNA 0.4 mg/ml; reference: random background probes; direction: higher = stronger binding; measurement: fitted relative affinity; shared flanks, not repeated: GCCTAGCAC … GTCTTGATTCGCTTGACGCTGCTG
Target: Interferon regulatory factor 7, full length, phosphomimetic (IRF7, Homo sapiens, UniProt Q92985, residues 1-503, S471D/S472D/S475D/S476D/S477D/S483D/S484D/S487D)
Chain of UniProt Q92985 (whole entry, unmodified, looked up): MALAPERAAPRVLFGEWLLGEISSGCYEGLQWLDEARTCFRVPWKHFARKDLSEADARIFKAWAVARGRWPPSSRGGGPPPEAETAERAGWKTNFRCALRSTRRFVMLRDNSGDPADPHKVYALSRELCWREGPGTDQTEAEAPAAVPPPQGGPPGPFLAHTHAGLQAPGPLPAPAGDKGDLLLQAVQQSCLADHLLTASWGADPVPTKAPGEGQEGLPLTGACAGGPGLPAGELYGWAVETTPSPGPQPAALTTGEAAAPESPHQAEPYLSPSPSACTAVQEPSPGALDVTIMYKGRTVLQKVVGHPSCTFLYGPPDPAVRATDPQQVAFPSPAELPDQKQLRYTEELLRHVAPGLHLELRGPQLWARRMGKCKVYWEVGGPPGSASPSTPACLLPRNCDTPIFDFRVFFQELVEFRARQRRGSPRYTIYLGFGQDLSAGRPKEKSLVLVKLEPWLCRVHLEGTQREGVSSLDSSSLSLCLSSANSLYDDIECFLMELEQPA
GACGATTTCCGTTCCGAGACGTGCTAG: 3.25 z-score
TTAGGTATCCCTTTCCTTTAGTGCTAG: 2.01 z-score
ATGTTTTTCATTTTGTTCATGTGCTAG: 4.54 z-score
TTAGATTTCAGTCTCGTTTAGTGCTAG: 1.4 z-score
TTATGTCTGGGTATTTTTTCGTGCTAG: 1.08 z-score
CTAATTTTTACTTTCTGAATGTGCTAG: 3.98 z-score
TCATATTTAAGGCTAGGACTGTGCTAG: 0.0147 z-score
GACGGACTGCTTATCCTCACGTGCTAG: 0.6 z-score
TACGGTCTCCTTTTCCTGACGTGCTAG: 1.98 z-score
CTGAGAATGGGGTTTGCAGCCGTGCTA: -0.645 z-score
GAAGGTCTCGGACTGGGGACGTGCTAG: -0.559 z-score
CCTGGTTTTACTTTCTATCTGTGCTAG: 5.23 z-score
TTAGATATCGTGACTGGATTAGTGCTA: -0.00105 z-score
TCACCTCTCTGTCCCCCTTTGTGCTAG: 1.98 z-score
GACGGAATCGGGTTTCGGGACGTGCTA: 1.91 z-score
GTCGATATCGGGTTTCGAGACGTGCTA: 2.11 z-score
AGGCTTTTTTTTTTTTTTTTGTGCTAG: 0.266 z-score
GACGGACCGGACTATCGGGACGTGCTA: -1.21 z-score
TTAGATTCCAGTTTCTATTAGTGCTAG: 3.13 z-score
CACGGTATCGGTATCGGGACGTGCTAG: 0.318 z-score
GACGATTTCGGGTATCCAGACGTGCTA: 2.89 z-score
TTAGAACTGAGCATCGATTAGTGCTAG: -0.577 z-score

Excerpt of the above (sample 1):
AACCAAAAGCUUCUGCACUUUGCUUCUGUUCUUCCUGUACAAGAAAUGCAAACGGCCACUGCAUUUUAAUGAUUGUUAUUCUUUUAUGAAUAAAAUGUAUGUAGAAACAA: 0.625
UGGUUGUGUUAACAGAGCACAUUUUGUUGGGUGAGUCCUAUGUGAUUUUUUUCAUGUUUGUUUUAUCUGGGGGUUGUUCAUGAAACUGACAGAUGUUUUUCUAAAAAGGA: 0.768
CCGCCCCAGCGCUUCACAGCCGCUUCUGGCUUUGCAAGGUGUCUGUCUCGGCCAGUGCCGUGGCCUGCUGGGAAGGGUCAGAGUCCUCACUGUCCCCCGUCUGUCCAGCA: 1.46
CUCCCCAGCUUGCGCAGAGACGUGUGCGUCCCACGUCCCUUGCCGUGCUCUCCCUUUUGGUAGGUGUUACUUUAAGAACUGCAGUCAGACUUGCUGUUGCCUGACAAUUA: 0.506
UGGCCGCGGGACUGAUGGGUGUCCUGGGUUCUUUAGCUCACCAGCACUUUGCGCUCAAUGGACUUUGUAAAUUCUCAUCAGCUGUUGUAGAAGUUCCUCUGCCUGGAGCU: 3.52
AAGCCACUGUUCCCUCUGGUGGCUUUUACAUGUCGGUGGCUGGCAUACCAUAUAGUAACAGCAGUAAUUCUGUCUCAGUGUGCUUGCAAGGAAACUUUUCUUAUAAAGAG: 0.263
AUUGUAUAUAUGGCAGGCUUCCCUGGUGCCGAUGUAAAGGGCUACAUUUGGGAACAUUUGACUUCCUUGGGACUCUUAAGUGCAUAAUGAUGGCAUGAAGUAAAAGGGGC: 8.96
AAAUCAGGAACUUUUUUCUAACAAUUUGCUUUUGAAACUUGAAGUCAAGGAAACAGUGUGGUGCAAGUACUGCUGUUCUAGCCCCCAAAGAGUUUUCUGUACAAAAUUUU: 0.545
UCUUAUUGCUUAUUUGGUCGUAAUGAAAAUAAUUUGUAAAAUGUCCUUUAAAAGUUUAAUGAUACUUCUGAUGUUUCGGAACAGUCAUUUCACCUACUAUUUCUGAAUAU: 0.378
UCAACAGGGAAUAAACAGGCUCUAGCACAUUAAGGAUGUGGCCUAGGCUGAGUGUUACCUUAAAAUGCCUUGUGGUCUCCACCUCUAAAGCUAUAAAAGUGUCUUAGAGA: 0.245
